Published values of several laboratories.
Parts stem from different laboratories: compare values within a part only. “And” joins repeats or separate records; there may be more than shown.
Sequence of UniProt P42679 (whole entry, looked up): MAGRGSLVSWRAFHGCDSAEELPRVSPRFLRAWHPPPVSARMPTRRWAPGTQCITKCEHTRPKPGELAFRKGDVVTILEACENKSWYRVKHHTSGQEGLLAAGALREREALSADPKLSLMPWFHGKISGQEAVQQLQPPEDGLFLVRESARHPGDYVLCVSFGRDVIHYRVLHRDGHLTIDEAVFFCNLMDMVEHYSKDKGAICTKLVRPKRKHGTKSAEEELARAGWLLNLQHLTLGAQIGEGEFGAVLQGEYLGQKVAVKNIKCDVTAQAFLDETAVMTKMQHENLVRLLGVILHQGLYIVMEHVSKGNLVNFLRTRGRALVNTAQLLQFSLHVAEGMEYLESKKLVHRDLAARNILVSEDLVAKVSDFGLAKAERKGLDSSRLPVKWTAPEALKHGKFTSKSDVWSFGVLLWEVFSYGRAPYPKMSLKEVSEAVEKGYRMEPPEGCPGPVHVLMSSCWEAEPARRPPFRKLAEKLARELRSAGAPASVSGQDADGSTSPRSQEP
Sequence of UniProt P25098 (whole entry, looked up): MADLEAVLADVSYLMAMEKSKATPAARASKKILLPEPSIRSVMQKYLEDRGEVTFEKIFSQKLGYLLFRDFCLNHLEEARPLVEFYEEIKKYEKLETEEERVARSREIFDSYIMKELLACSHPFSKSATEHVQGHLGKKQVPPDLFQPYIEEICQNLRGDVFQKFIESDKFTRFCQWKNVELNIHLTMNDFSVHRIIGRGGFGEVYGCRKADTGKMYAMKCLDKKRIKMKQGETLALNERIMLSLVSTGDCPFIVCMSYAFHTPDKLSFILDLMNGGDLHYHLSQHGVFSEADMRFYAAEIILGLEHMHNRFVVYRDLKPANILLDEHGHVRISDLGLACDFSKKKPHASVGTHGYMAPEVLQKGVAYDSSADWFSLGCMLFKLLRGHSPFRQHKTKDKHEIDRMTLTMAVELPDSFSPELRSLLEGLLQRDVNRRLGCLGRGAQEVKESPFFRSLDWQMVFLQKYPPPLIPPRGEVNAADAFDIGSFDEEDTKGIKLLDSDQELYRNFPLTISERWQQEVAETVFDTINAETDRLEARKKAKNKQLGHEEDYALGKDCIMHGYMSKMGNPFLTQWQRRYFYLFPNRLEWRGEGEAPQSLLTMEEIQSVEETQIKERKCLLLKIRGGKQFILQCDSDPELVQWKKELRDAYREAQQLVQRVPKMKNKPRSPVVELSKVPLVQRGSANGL
Sequence of UniProt P53667 (whole entry, looked up): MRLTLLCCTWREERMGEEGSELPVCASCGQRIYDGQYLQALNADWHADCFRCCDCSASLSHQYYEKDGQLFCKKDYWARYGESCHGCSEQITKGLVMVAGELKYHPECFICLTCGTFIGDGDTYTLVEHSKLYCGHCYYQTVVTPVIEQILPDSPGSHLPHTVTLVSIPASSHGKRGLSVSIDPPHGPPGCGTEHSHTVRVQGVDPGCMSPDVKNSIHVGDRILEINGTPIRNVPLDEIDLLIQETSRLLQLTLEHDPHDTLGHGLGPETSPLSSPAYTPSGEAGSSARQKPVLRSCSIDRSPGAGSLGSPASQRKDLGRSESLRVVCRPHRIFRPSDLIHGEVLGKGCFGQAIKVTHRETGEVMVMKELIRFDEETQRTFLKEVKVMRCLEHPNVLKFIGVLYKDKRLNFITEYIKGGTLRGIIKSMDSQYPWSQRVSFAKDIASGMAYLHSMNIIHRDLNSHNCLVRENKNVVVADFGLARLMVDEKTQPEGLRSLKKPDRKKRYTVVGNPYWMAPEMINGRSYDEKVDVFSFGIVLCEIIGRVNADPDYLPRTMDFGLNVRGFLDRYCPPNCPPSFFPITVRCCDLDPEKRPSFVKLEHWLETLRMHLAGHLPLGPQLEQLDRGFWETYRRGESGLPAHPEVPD

Block 1
Target: DNA polymerase theta, ATPase domain (POLQ, Homo sapiens, UniProt O75417)
Sequence of UniProt O75417 (whole entry, unmodified, looked up): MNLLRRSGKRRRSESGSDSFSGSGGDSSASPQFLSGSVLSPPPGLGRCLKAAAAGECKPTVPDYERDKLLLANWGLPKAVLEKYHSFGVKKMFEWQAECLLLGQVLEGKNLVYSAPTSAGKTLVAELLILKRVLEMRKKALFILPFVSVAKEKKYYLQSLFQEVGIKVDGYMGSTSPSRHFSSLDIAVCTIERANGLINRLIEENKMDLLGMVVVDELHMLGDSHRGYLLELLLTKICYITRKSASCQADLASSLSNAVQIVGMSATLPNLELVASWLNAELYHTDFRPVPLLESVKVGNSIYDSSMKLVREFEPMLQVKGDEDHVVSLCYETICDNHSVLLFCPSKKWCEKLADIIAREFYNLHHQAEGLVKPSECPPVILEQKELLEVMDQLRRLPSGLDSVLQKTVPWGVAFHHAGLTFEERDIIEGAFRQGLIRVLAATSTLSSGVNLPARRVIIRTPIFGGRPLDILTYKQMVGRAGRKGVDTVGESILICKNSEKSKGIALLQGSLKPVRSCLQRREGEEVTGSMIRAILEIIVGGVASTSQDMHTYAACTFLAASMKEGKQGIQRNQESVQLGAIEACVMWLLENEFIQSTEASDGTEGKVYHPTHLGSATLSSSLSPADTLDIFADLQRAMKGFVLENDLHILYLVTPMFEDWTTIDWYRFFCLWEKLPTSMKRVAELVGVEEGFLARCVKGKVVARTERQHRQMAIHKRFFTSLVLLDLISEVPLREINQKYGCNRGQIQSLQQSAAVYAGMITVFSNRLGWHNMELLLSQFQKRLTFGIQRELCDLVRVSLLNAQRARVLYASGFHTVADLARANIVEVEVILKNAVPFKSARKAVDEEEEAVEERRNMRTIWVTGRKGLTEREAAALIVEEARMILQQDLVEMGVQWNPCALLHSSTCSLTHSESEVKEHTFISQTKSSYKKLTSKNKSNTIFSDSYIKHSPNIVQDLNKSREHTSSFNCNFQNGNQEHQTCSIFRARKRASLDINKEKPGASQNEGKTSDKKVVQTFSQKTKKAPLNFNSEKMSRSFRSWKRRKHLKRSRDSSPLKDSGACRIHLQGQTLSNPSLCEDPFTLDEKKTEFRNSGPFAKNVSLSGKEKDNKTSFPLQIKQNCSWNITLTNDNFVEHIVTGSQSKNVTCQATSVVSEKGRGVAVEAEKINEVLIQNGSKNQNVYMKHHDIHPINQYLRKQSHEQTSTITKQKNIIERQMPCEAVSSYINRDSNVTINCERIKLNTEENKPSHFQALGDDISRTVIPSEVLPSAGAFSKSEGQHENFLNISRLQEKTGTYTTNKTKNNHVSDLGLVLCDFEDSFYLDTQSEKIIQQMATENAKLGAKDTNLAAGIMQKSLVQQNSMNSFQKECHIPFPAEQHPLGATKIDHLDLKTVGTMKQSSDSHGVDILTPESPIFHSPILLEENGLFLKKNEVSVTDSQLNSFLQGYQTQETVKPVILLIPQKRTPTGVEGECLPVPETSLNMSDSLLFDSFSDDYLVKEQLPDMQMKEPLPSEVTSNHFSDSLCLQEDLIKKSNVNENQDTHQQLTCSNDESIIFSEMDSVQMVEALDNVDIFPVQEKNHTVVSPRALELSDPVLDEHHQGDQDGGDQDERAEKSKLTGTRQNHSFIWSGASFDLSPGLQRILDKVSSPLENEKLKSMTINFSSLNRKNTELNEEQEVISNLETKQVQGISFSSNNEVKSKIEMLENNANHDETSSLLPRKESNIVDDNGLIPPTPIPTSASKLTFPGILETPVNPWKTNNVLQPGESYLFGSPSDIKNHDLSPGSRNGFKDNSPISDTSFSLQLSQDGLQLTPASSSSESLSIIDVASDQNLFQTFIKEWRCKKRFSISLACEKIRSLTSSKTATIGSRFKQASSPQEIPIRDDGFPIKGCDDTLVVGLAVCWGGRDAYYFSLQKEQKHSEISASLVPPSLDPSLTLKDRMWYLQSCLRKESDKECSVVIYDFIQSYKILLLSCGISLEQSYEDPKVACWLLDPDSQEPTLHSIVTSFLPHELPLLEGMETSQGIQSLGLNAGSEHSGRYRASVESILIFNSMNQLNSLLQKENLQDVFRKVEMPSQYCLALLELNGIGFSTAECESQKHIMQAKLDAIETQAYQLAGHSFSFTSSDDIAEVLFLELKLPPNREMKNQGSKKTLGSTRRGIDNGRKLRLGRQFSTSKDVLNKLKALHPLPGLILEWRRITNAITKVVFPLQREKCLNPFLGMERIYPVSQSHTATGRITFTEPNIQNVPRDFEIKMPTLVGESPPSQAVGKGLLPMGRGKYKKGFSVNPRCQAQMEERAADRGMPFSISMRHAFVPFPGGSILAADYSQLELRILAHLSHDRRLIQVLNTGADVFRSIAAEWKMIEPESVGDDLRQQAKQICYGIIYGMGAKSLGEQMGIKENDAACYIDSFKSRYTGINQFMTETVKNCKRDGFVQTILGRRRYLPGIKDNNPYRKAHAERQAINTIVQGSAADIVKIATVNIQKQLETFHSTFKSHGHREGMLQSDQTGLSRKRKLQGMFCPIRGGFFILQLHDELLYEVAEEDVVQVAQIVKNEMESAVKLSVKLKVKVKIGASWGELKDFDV
Effect on: enzyme activity
Action: inhibitor
Concentration: 77 µM
Baseline: untreated
Measurement: remaining activity
Cc1cccc(Nc2cc(Cl)nc(SCC(=O)O)n2)c1C: 86.8%
CCOC(=O)[C@H](CCc1ccccc1)N[C@@H](C)C(=O)N1C(=O)N(C)C[C@H]1C(=O)O: 102%
O=C(CCCN1CCN(c2ccccn2)CC1)c1ccc(F)cc1: 103%
COC(=O)N1CCN(Cc2cccc(NC(=O)Nc3ccc(C)nc3)c2F)CC1: 98.6%
CNC[C@@H](O)c1ccc(O)c(O)c1: 88.6%
CCN(CC)Cc1cc(Nc2ccnc3cc(Cl)ccc23)ccc1O: 103%
O=C(O)[C@]1(O)C[C@@H](O)[C@@H](O)[C@H](O)C1: 93.2%
NC(=O)c1cnccn1: 94% and 102%
CC[C@H]1OC(=O)[C@H](C)[C@@H](O[C@H]2C[C@@](C)(OC)[C@@H](O)[C@H](C)O2)[C@H](C)[C@@H](O[C@@H]2O[C@H](C)C[C@H](NC)[C@H]2O)[C@](C)(O)C[C@@H](C)CN(C)[C@H](C)[C@@H](O)[C@]1(C)O: 101%
OCc1cc(C(O)CNCCCCCCOCCCCc2ccccc2)ccc1O (centres unmarked): 99.9%
CC[C@H](NC(=O)[C@H](C)NC)C(=O)N1C[C@@H](O)C[C@H]1Cc1c(-c2[nH]c3cc(F)ccc3c2C[C@@H]2C[C@H](O)CN2C(=O)[C@H](CC)NC(=O)[C@H](C)NC)[nH]c2cc(F)ccc12: 79.3%
CNC(=O)[C@H](Cc1ccccc1)NC(=O)[C@H](CC(C)C)[C@H](CSc1cccs1)C(=O)NO: 98.6%
Nc1ccc(CCNc2ncnc3c2ncn3[C@@H]2O[C@H](CO)[C@@H](O)[C@H]2O)cc1: 102%
C[C@@]1(c2cc(-c3cncnc3)c(F)cc2F)CCSC(N)=N1: 99.6%
CCCC(=O)Oc1ccc2[nH]c(C(=O)c3cc4ccccc4[nH]3)cc2c1: 117%

Block 2
Target: Myosin light chain kinase 2, skeletal/cardiac muscle (MYLK2, Homo sapiens, UniProt Q9H1R3)
Sequence of UniProt Q9H1R3 (whole entry, looked up): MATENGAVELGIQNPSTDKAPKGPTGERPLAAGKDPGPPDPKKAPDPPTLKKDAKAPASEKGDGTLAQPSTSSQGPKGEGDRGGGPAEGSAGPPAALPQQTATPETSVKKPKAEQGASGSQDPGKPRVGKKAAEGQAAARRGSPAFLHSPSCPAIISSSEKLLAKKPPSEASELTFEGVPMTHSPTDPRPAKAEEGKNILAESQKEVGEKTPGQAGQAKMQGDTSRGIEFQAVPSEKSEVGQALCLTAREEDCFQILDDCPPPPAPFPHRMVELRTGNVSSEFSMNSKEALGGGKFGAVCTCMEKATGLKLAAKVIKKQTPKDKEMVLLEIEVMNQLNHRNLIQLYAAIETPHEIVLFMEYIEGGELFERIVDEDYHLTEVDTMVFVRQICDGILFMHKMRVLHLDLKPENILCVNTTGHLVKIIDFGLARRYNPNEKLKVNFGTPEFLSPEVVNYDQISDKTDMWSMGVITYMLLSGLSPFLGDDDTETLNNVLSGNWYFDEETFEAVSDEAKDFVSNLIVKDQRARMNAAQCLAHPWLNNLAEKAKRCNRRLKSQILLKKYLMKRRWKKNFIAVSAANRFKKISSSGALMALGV
Effect on: enzyme activity
Action: inhibitor
Concentration: 0.5 µM
Baseline: control
Measurement: remaining activity
CS(=O)(=O)CCNCc1ccc(-c2ccc3ncnc(Nc4ccc(OCc5cccc(F)c5)c(Cl)c4)c3c2)o1: 108%
COc1cc2ncnc(N3CCN(C(=O)Nc4ccc(Oc5ccccc5)cc4)CC3)c2cc1OC: 94.6%
Nc1[nH]nc2nnc(-c3c(-c4ccccc4)nn4ccccc34)cc12: 101%
CCC(=O)Nc1ccc2ncnc(Nc3cccc(Br)c3)c2c1: 96.4%
O=C(Nc1ccc(Cl)cc1)c1ccccc1NCc1ccncc1: 99.5%
COc1cc2ncnc(Nc3ccc(OCc4ccccc4)cc3)c2cc1OC: 97.5%
CCN1/C(=C/C(C)=O)Sc2ccc(OC)cc21: 95.1%
CC(C)c1nn(-c2c(Cl)cccc2Cl)c2nc(Cc3ccc(OCCO)cc3)[nH]c(=O)c12: 96.6%
Cc1ccc(NC(=O)c2ccc(CN3CCN(C)CC3)cc2)cc1Nc1nccc(-c2cccnc2)n1: 102%
COc1ccc(Cl)cc1NC(=O)Nc1cc(C)nc2ccccc12: 99.3%
CC(=O)O/N=C1/C(c2c(O)[nH]c3cc(Br)ccc23)=Nc2ccccc21: 55%
O=c1cc(N2CCOCC2)oc2c1ccc1ccccc12: 97.7%
O=C1NC(=O)/C(=C/c2ccc3nccnc3c2)S1: 97.2%
COc1ccc(-c2cnc3c(-c4ccsc4)cnn3c2)cc1: 75.6%
CC(C)[C@H](CO)Nc1nc(Nc2cccc(Cl)c2)c2ncn(C(C)C)c2n1: 97.1%
Cc1nc(Nc2ncc(C(=O)Nc3c(C)cccc3Cl)s2)cc(N2CCN(CCO)CC2)n1: 97.3%
CN(C)CCCn1cc(C2=C(c3c[nH]c4ccccc34)C(=O)NC2=O)c2ccccc21: 73.9%
Cn1cnc2cc3c(Nc4cccc(Br)c4)ncnc3cc21: 87.6%
COc1cc2ncc(-c3ccccc3)nc2cc1OC: 100%
Cn1cc(/C=C2\C(=O)Nc3ccc(S(N)(=O)=O)cc32)c2ccccc21: 53.6%
C[S+]([O-])c1ccc(-c2nc(-c3ccncc3)c(-c3ccc(F)cc3)[nH]2)cc1 (centres unmarked): 99.9%
CCOc1cc2ncnc(Nc3cccc(Br)c3)c2cc1OCC: 93.5%

Block 3
Cell line: mouse MPNST tumor cells
Technique: high-content immunofluorescence imaging
Measured: nuclear SOX9
Concentration: 10 µM
Time: 12 h
Setting: mean of 2 replicates
Baseline: DMSO control
Reading: higher = more nuclear SOX9
Measurement: nuclear SOX9 intensity
O=S(=O)(c1cccc2c(Cl)cccc12)N1CCCNCC1: 194 % of DMSO
CCn1cc(C(=O)O)c(=O)c2cc(F)c(N3CCNC(C)C3)c(F)c21 (centres unmarked): 108 % of DMSO
O=C(O)c1cc(=O)c2ccccc2[nH]1: 103 % of DMSO and 99.1 % of DMSO
O=C(NC1Cc2ccccc2N(C[C@@H](O)CO)C1=O)c1cc2cc(Cl)sc2[nH]1 (some centres unmarked): 85.7 % of DMSO
CC(=O)Nc1cccc(Nc2ncnc(N3CCC(OCc4ccc(OC(F)(F)F)cc4)CC3)n2)c1C: 113 % of DMSO
CN1C(=O)N(c2cc(Cl)cc(Cl)c2)C(=O)[C@@]1(C)Cc1ccc(Br)cc1: 114 % of DMSO
CCOc1cc(N)c(Cl)cc1C(=O)NCC1CN(Cc2ccc(F)cc2)CCO1 (centres unmarked): 84.7 % of DMSO
Oc1ncnc2[nH]ncc12: 98.7 % of DMSO and 94.6 % of DMSO
c1ccc(N2CCN(CCCOc3ccc4c(c3)OCO4)CC2)cc1: 96.7 % of DMSO
CNC(=C[N+](=O)[O-])NCCSCc1csc(CN(C)C)n1: 94.6 % of DMSO and 94.1 % of DMSO
CC[C@H]1OC(=O)C[C@@H](O)[C@H](C)[C@@H](O[C@@H]2O[C@H](C)[C@@H](O[C@H]3C[C@@](C)(O)[C@@H](O)[C@H](C)O3)[C@H](N(C)C)[C@H]2O)[C@@H](CC=O)C[C@@H](C)C(=O)/C=C/C(C)=C/[C@@H]1CO[C@@H]1O[C@H](C)[C@@H](O)[C@@H](OC)[C@H]1OC: 102 % of DMSO
O=C(O)C1(C(=O)O)CCC1.[NH2-].[NH2-].[Pt+2]: 97.3 % of DMSO
Clc1cccc(C(c2ccc3[nH]cnc3c2)n2ccnc2)c1 (centres unmarked): 82.8 % of DMSO
CN1CCC(OC(c2ccccc2)c2ccccc2)CC1: 102 % of DMSO
CC(C)Cc1sc(N)nc1-c1ccc(P(=O)(O)O)o1: 100 % of DMSO

Block 4
SMILES: C[C@@H]1CN(c2cc(-c3nn(C)c4ccc(OC5(C)CC5)cc34)ncn2)C[C@H](C)O1
Technique: competition with immobilised ligand
Concentration: 1 µM
Measurement: remaining binding
Tyrosine-protein kinase JAK1, JH2 (JAK1, Homo sapiens, UniProt P23458); cell-free assay: 84%
PIK3CB (Homo sapiens, UniProt P42338); cell-free assay: 100%
CDK11B (Homo sapiens, UniProt P21127); cell-free assay: 88%
MERTK (Homo sapiens, UniProt Q12866); cell-free assay: 83%
PKMYT1 (Homo sapiens, UniProt Q99640); cell-free assay: 100%
CSNK1G2 (Homo sapiens, UniProt P78368); cell-free assay: 100%
BRAF (Homo sapiens, UniProt P15056); cell-free assay: 68%
EPHB3 (Homo sapiens, UniProt P54753); cell-free assay: 100%
GRK2 (Homo sapiens, UniProt P25098); cell-free assay: 68%
FLT3 (Homo sapiens, UniProt P36888, R834Q); cell-free assay: 90%
MAP3K7 (Homo sapiens, UniProt O43318); cell-free assay: 89%
ANKK1 (Homo sapiens, UniProt Q8NFD2); cell-free assay: 67%
GSK3A (Homo sapiens, UniProt P49840); cell-free assay: 86%
BUB1 (Homo sapiens, UniProt O43683); cell-free assay: 89%
MATK (Homo sapiens, UniProt P42679); cell-free assay: 80%
BMPR1A (Homo sapiens, UniProt P36894); binding: 85%
CDK4 (Homo sapiens, UniProt P11802); cell-free assay: 91%
PNCK (Homo sapiens, UniProt Q6P2M8); cell-free assay: 100%
LRRK2 (Homo sapiens, UniProt Q5S007, G2019S); cell-free assay: 36%
TYRO3 (Homo sapiens, UniProt Q06418); cell-free assay: 93%
LIM domain kinase 1 (LIMK1, Homo sapiens, UniProt P53667); cell-free assay: 95%
PLK3 (Homo sapiens, UniProt Q9H4B4); cell-free assay: 84%
PTK2B (Homo sapiens, UniProt Q14289); cell-free assay: 77%
CDC42BPA (Homo sapiens, UniProt Q5VT25); cell-free assay: 89%
ACVR2B (Homo sapiens, UniProt Q13705); cell-free assay: 98%

A few entries again (block 4):
ANKK1 (Homo sapiens, UniProt Q8NFD2); cell-free assay: 67%
GSK3A (Homo sapiens, UniProt P49840); cell-free assay: 86%
BUB1 (Homo sapiens, UniProt O43683); cell-free assay: 89%
MATK (Homo sapiens, UniProt P42679); cell-free assay: 80%
BMPR1A (Homo sapiens, UniProt P36894); binding: 85%
